Results of several laboratories.
A part holds a random share of what one study measured. Substitutions count along the parent as printed.

Set 1
Target: Fragile X messenger ribonucleoprotein 1, C-terminal low-complexity region (Fmr1, Mus musculus, UniProt P35922)
Method: RNA Bind-n-Seq
Form: RNA
Sample: in vitro
Tested at: 200 nM
Notes: whole 134-nt RNA, ends assumed
Added: 150 mM KCl
Reference: input library
Reading: higher = stronger binding
`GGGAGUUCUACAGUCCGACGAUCGUCCUGUGCUACACAUCGUAUGUACCGAAUCGGGGCCCCCGGCCCCCGGGCCCCCGGGGAAAGUAUUAUGUUACGCCGUUCGGAUCUGCAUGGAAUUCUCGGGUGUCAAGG` has a log2 enrichment of -0.93.
`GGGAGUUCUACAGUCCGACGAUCACCAUGCAGGUGGGCAUCUUUGGGAAGUGGGGCAAGGGGGGGAUAGGAAGGGGGGUAACACUUUGGGAACAGGUGGUCCCAGGUCGUUUCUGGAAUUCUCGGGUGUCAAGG` gave a log2 enrichment of 0.68.
The log2 enrichment of `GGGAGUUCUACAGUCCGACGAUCACCAUGCAGGUGGGCAUCUUUGGGAAGUGGGGCAAAGGGGGGAUAGGGAGGGGGGUAACACUUUGGGAACAGGUGGUCCCAGGUCGUUUCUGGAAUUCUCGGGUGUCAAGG` is reported as 0.787.
With `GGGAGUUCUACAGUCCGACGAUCUCCUCAAGUCCUGUGCUACACAUCGUAUGUACCGAAUCGGGAGGGAGGGAGGAAAGUAUUAUGUUACGCCGUUCGGAUCUGCACUUCCAGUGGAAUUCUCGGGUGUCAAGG` the log2 enrichment was 1.53.
`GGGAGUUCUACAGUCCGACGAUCCCUCAAGUCCUGUGCUACACAUCGUAUGUACCGAAUCGGUGGAAAAAGGAGGAAAGUAUUAUGUUACGCCGUUCGGAUCUGCACUUCCAGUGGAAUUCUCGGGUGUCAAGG` has a log2 enrichment of 0.261.
`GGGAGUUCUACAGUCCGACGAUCUAACUUUAGAGGAGGAUCUGAUGGAUAUGACAGUGGACGUGGAUUUGGGGAUGGCUAUAAUGGGUAUGGAGGAGGACCUGGAGGUGGCAAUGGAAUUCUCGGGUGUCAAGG` gave a log2 enrichment of 0.26.
The log2 enrichment of `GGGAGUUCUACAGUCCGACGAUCUGUGCUACACAUCGUAUGUACCGAAUCGGGGAAAAAGGGGAAAAAAAGGGGAAAAAAAGGGGAAAGUAUUAUGUUACGCCGUUCGGAUCUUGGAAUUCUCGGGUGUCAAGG` is reported as -0.168.
The log2 enrichment of `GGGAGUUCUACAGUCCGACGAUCUGUGGAUGCCCUGCUGAAGAAGUCUGAGGCCCAGCAUGAACAGCCGGAAGAUGGAUGCCCCUUUGGUGCCCUGACGCAGCGCCUCCUGCAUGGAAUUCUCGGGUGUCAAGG` is reported as -0.662.
The log2 enrichment of `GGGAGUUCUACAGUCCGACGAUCCUGUGCUACACAUCGUAUGUACCGAAUCGGCCCCCCCGGCCCCCCCGGGGCCCCCCCGGGGAAAGUAUUAUGUUACGCCGUUCGGAUCUGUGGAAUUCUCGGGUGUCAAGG` is reported as -0.936.
For `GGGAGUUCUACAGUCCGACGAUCUGGCCCUGGUGUCAUGCGGGGAGGAAGAGGUGGCCUCAUGGAUCGUGGUGGUCCCGGUGGAAUGUUCAGAGGUGGCCGUGGUGGAGACAGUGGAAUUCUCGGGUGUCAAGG`, the log2 enrichment was -0.172.

Set 2
Target: Interferon regulatory factor 3, full length, phosphomimetic (IRF3, Homo sapiens, UniProt Q14653, residues 1-427, S386D/S396D/S398D/S402D/T404D/S405D)
Method: protein-binding microarray
Form: double-stranded DNA, one strand shown
Sample: in vitro
Tested at: 2540 nM top
Notes: 60-bp whole probe
Added: salmon DNA 0.4 mg/ml
Reference: random background probes
Reading: higher = stronger binding
All sequences stand within: GCCTAGCAC … GTCTTGATTCGCTTGACGCTGCTG
Target sequence (chain): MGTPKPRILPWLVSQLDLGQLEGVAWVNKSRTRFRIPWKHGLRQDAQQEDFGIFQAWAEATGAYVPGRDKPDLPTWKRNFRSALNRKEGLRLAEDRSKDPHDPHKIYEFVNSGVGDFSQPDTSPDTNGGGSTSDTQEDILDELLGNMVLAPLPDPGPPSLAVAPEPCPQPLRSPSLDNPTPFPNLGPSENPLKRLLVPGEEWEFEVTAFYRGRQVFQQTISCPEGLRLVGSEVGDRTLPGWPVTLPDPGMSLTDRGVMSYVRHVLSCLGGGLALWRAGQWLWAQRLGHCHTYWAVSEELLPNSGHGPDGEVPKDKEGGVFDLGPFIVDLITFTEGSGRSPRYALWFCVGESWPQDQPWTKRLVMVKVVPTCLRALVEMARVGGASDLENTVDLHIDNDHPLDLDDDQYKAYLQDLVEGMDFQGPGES
`TTAGGTCTCCTACTGCTTTTGTGCTAG`: “fitted relative affinity” 0.673 z-score.
`GACGGTCTCGGACTGGGGAAGTGCTAG`: “fitted relative affinity” 0.028 z-score.
For `AGTGTTTGCCCTATTTAAAAGTGCTAG`, “fitted relative affinity” read 1.2 z-score.
`GACGGACTGCTTATCCGGACGTGCTAG` — result for “fitted relative affinity”: 0.0686 z-score.
Under “fitted relative affinity”, `TTAGAACTGTGTTTCGATTAGTGCTAG` is recorded as 1.98 z-score.
`CCCACCCTCAGGGAGCCTGTGTGCTAG` — result for “fitted relative affinity”: -0.106 z-score.
Under “fitted relative affinity”, `TTAGAACTAGGGACTGGATTAGTGCTA` is recorded as -0.65 z-score.
Under “fitted relative affinity”, `GTAGGTTTCGGTTCCGGTTAGTGCTAG` is recorded as 10.9 z-score.
Under “fitted relative affinity”, `CATTTTCTCTTATTCTAACAGTGCTAG` is recorded as 4.25 z-score.
For `GACGATCTCAGTTGCGAGACGTGCTAG`, “fitted relative affinity” read 0.794 z-score.
`TTAGGTTTCGGCCTGGGTTAGTGCTAG` — result for “fitted relative affinity”: 2.49 z-score.
`GCCGGTATCGGTATCGGGACGTGCTAG` — result for “fitted relative affinity”: 5 z-score.
For `TTAGAACTGGGGACTGGAATAGTGCTA`, “fitted relative affinity” read -0.743 z-score.
Under “fitted relative affinity”, `GCAGGGTATAGGCATTCCCTGTGCTAG` is recorded as -0.942 z-score.
`TACGGTTTCGGGACTGGGGACGTGCTA` — result for “fitted relative affinity”: 4.12 z-score.
For `TCTATTTTCTGAATGTCTTCGTGCTAG`, “fitted relative affinity” read 1.98 z-score.
Under “fitted relative affinity”, `AGCCAGGCAACCTATGGCCTGTGCTAG` is recorded as -1.35 z-score.
Under “fitted relative affinity”, `GACTGTTCCCTTTTCCTGACGTGCTAG` is recorded as 5.07 z-score.
`TTAGTTATCAGACTGGATTAGTGCTAG`: “fitted relative affinity” 0.603 z-score.
`TCATTTCTCTTTCATTGCACTGTGCTA` — result for “fitted relative affinity”: 3.76 z-score.
`CTAAATATCTTTGTTGAAAAGTGCTAG` — result for “fitted relative affinity”: 0.679 z-score.
For `TTAGGTTTAGACTTTCGGTTAGTGCTA`, “fitted relative affinity” read 1.1 z-score.
`TTTTTTATCAATCATTTTAGTGTGCTA` — result for “fitted relative affinity”: 1.44 z-score.
Under “fitted relative affinity”, `TTTCTTTTTGCACTCTCTACGTGCTAG` is recorded as 4.03 z-score.
`TCATGTCTGTTTTTGCTACTGTGCTAG`: “fitted relative affinity” 0.885 z-score.

Set 3
Target: Sal-like protein 4, full length isoform A (SALL4, Homo sapiens, UniProt Q9UJQ4, residues 1-1053)
UniProt Q9UJQ4, sequence (whole entry, looked up): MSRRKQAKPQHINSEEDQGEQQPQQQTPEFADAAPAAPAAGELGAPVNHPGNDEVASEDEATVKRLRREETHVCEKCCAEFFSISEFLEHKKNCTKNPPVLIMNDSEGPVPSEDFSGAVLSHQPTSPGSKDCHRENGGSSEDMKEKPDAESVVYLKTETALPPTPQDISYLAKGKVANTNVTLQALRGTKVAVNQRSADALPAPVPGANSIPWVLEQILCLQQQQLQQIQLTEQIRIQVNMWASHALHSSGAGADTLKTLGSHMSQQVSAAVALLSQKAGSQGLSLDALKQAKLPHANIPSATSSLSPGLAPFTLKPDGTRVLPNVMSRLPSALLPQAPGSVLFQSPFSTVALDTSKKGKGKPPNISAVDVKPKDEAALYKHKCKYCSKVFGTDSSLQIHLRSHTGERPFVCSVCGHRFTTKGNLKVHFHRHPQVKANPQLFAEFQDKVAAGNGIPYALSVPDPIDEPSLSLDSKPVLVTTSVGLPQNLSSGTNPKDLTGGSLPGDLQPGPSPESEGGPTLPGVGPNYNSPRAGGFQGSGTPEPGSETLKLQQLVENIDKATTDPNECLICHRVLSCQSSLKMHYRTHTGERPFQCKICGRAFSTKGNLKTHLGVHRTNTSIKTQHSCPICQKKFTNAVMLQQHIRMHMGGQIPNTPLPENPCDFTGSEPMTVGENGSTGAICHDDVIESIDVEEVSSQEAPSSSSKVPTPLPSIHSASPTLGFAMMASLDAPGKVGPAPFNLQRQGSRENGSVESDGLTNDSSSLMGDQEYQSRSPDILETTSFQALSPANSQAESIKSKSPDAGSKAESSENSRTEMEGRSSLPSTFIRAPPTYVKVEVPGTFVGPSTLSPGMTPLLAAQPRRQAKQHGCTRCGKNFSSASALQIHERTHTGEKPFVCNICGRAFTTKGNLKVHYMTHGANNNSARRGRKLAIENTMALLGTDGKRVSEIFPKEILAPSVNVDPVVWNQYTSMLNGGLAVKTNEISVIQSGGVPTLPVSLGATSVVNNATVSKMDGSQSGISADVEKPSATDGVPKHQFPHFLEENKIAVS
Method: universal PBM
Form: double-stranded DNA, one strand shown
Sample: in vitro
Tested at: 600 nM
Notes: 8-mer, flanks averaged, mean of replicates
Reading: higher = stronger binding
The E-score of `CTCGTCTA` is reported as -0.0515.
For `TCGAGACA`, the E-score was -0.0137.
`CGCGAAAC` has an E-score of -0.219.
With `ATACTAAC` the E-score was 0.136.
`GCCTCACA` gave an E-score of 0.0352.
With `TAAATCCA` the E-score was 0.147.
`CTTCAAGC` has an E-score of -0.109.
With `GCACGCCA` the E-score was -0.338.
`CCGATCAG` has an E-score of -0.182.
`CACTTTAC` has an E-score of 0.163.
For `TCACTCGA`, the E-score was -0.00054.
`AGAATAAG` gave an E-score of 0.258.
With `ACGTGCCA` the E-score was -0.14.
`CCATTCAG` gave an E-score of 0.117.
`GATAAACA` has an E-score of 0.24.
With `GAGAGTCC` the E-score was -0.263.
The E-score of `CGAGTCGA` is reported as -0.111.
`AACGTTAA` gave an E-score of 0.159.
The E-score of `CGACCGCG` is reported as -0.352.

Set 4
Target: CCNA1, cyclin fold, Cln2 fusion (human)
Method: yeast growth competition, sequencing
Sample: yeast
Notes: weak parent motif
Reference: not given
Reading: higher = stronger binding
Starting sequence: CDC25A docking peptide (human); PPHRRRLLFACSP; partner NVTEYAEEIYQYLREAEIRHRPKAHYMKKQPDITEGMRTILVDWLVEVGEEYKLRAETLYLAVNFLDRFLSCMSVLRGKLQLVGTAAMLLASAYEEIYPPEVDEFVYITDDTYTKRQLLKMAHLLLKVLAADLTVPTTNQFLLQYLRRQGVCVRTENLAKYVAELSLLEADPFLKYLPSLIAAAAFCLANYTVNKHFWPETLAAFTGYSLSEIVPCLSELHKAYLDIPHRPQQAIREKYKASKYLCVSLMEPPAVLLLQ
Under “normalised enrichment score”, `A10S` is recorded as 0.171.
`C11S` — result for “normalised enrichment score”: 0.283.
`C11D`: “normalised enrichment score” 0.103.
`P13G` — result for “normalised enrichment score”: 0.377.
For `S12G`, “normalised enrichment score” read 0.474.
`P13W` — result for “normalised enrichment score”: -0.084.
For `H3T`, “normalised enrichment score” read 0.477.
`R5K` — result for “normalised enrichment score”: 0.415.
Under “normalised enrichment score”, `L8F` is recorded as 0.342.
For `R6Q`, “normalised enrichment score” read 0.456.
`A10H`: “normalised enrichment score” 0.29.
Under “normalised enrichment score”, `L8G` is recorded as 0.358.
For `R6M`, “normalised enrichment score” read 0.367.
Under “normalised enrichment score”, `C11V` is recorded as 0.521.
`F9P`: “normalised enrichment score” 0.0295.
For `S12C`, “normalised enrichment score” read 0.323.
`H3A` — result for “normalised enrichment score”: 0.192.
For `L8H`, “normalised enrichment score” read 0.231.
`P1H`: “normalised enrichment score” 0.287.
`S12M` — result for “normalised enrichment score”: 0.221.
For `C11K`, “normalised enrichment score” read 0.0446.
For `A10K`, “normalised enrichment score” read 0.316.
Under “normalised enrichment score”, `F9H` is recorded as 0.237.
For `L8T`, “normalised enrichment score” read 0.441.
For `A10I`, “normalised enrichment score” read -0.0126.

Mixed results
`PhoQ, residues 284 288 289 292 302 303 HSSMNL` gave a fold induction of 2.13 (PhoP, residues 12 14 15 18 19 AQALL (Escherichia coli, UniProt P23836); Sort-seq, item: YFP reporter; E. coli; PhoQ-PhoP variant library, added: 10 µM Mg2+; reference: high Mg2+ state, higher = stronger signaling).

A few entries again (set 4):
`C11D`: “normalised enrichment score” 0.103.
`P13G` — result for “normalised enrichment score”: 0.377.
For `S12G`, “normalised enrichment score” read 0.474.
`P13W` — result for “normalised enrichment score”: -0.084.
For `H3T`, “normalised enrichment score” read 0.477.
`R5K` — result for “normalised enrichment score”: 0.415.
Under “normalised enrichment score”, `L8F` is recorded as 0.342.
For `R6Q`, “normalised enrichment score” read 0.456.
